Published values of several laboratories.
Every numbered part comes from another study and shows a few of its results, in no order.

Series 1 — technique: RNA Bind-n-Seq; molecule type: RNA; sample: in vitro; tested at: not given; relative to: input RNA pool; reading: higher = stronger binding; quantity: bound/input enrichment
Target: RING finger protein unkempt homolog, zinc fingers 1-6, GST-SBP tag (UNK, Homo sapiens, UniProt Q9C0B0, residues 30-357)
Chain of UniProt Q9C0B0 (30-357, looked up): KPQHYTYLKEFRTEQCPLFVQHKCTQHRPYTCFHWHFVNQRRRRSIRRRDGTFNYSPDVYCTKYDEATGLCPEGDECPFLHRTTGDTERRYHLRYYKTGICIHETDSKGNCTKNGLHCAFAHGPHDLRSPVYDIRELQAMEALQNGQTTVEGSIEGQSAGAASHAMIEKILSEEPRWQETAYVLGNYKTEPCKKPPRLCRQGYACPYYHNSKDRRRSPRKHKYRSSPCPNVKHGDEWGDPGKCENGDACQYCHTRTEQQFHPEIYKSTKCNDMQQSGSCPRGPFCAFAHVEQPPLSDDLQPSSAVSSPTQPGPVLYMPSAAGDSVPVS
Notes: RNA with constant flanks, human and mouse sites, ends assumed
GGGAGUUCUACAGUCCGACGAUCGAUAUGGAAGAGGAAGCAGAUGAUGGUUCUAAGAUGGGAUCUGAUUUAGUCAGUCAGCAAGACAUCUGUAUAGAUUCUGCUUCAUCCGUGAGAGAGAAUAAGCAACCUGAAGGUUUGGAACAACAGAGGAUUGAGCAUCA: 0.174 ratio
GGGAGUUCUACAGUCCGACGAUCUUAAAAGAAAUUCAAGCCAUGAGUCAGUGCAGCCAUCCCAACGUAGUGACCUAUUACACCUCUUUUGUGGUCAAAGAUGAACUUUGGCUGGUCAUGAAAUUACUAAGUGGAGGUUCAAUGCAACAGAGGAUUGAGCAUCA: 0.214 ratio
GGGAGUUCUACAGUCCGACGAUCAUAUAUUGUAACAGAAUGUAUAAAUAUUUUUGAUAAAACAGUCUAUAUUUUAUUAAAAAAUGAAUUAUAACACUAAAGCUGUACCUCAAAAGUCUCAAAAAUAAUUUGAUGAAAUAUUUUCAACAGAGGAUUGAGCAUCA: 0.31 ratio
GGGAGUUCUACAGUCCGACGAUCAGCACCAGUGCGGCCACCUGUACUCGCAGACACUACGAAAGGUUAAUCCUGCCAUACGAAAGAUUUAUUAAGGGAGAAGAAGAUAAGCCUCUGCCGCCAAUCAAACCUCGGAAACAGGAACAACAGAGGAUUGAGCAUCA: 0.263 ratio

Series 2 — technique: protein-binding microarray; molecule type: double-stranded DNA, one strand shown; sample: in vitro; tested at: not given; reading: higher = stronger binding; quantity: E-score
Target: Max-binding protein MNT, bHLH-zipper, MAX partner unstated (MNT, Homo sapiens, UniProt Q99583, residues 220-300)
Notes: k-mer, scored over probes, only values ≥0.25
Target sequence (chain): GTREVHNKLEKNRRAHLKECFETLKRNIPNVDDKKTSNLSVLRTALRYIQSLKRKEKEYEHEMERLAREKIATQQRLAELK
ATAACGTG: 0.391
CATGATCG: 0.274
ACGTGGTC: 0.441
ACGAGCAC: 0.269
ATCCCACG: 0.361

Series 3 — technique: protein-binding microarray; molecule type: double-stranded DNA, one strand shown; sample: in vitro; tested at: 2200 nM top; notes: 60-bp whole probe; together with: salmon DNA 0.4 mg/ml; relative to: random background probes; reading: higher = stronger binding; quantity: fitted relative affinity
Target: Interferon regulatory factor 7, full length, phosphomimetic (IRF7, Homo sapiens, UniProt Q92985, residues 1-503, S471D/S472D/S475D/S476D/S477D/S483D/S484D/S487D)
Construct (chain): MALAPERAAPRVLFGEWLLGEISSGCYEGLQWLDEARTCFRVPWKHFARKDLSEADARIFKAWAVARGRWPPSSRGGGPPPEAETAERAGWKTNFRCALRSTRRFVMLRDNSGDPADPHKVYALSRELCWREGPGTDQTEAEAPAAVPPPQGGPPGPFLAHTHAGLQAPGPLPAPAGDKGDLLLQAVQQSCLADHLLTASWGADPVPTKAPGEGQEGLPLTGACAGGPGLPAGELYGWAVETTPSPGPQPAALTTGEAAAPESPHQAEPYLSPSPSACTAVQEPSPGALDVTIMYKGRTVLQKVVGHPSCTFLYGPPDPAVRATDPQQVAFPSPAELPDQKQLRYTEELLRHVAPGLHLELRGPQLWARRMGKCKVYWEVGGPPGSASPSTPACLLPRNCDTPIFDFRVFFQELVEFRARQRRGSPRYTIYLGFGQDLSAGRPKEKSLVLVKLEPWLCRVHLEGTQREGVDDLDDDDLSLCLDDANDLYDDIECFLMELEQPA
GCCTAGCACTATTGTCTCCCCCATCTTGTTGTGCTAGTCTTGATTCGCTTGACGCTGCTG: 0.809 z-score
GCCTAGCACGACGATCTTAGTTTCGAGACGTGCTAGGTCTTGATTCGCTTGACGCTGCTG: 4.05 z-score
GCCTAGCACTATTATATCTGTGTTATTAAGTGCTAGGTCTTGATTCGCTTGACGCTGCTG: 0.848 z-score
GCCTAGCACGACGTTCTCAGTATCGAGACGTGCTAGGTCTTGATTCGCTTGACGCTGCTG: 0.665 z-score

Mixed results
PhoQ, residues 284 288 289 292 302 303 SQSLSM  fold induction (PhoP, residues 12 14 15 18 19 SQCLL (Escherichia coli, UniProt P23836); Sort-seq, refers to: YFP reporter; E. coli; PhoQ-PhoP variant library, together with: 10 µM Mg2+; relative to: high Mg2+ state, higher = stronger signaling): 8.67

Excerpt of the above (series 2):
ACGAGCAC: 0.269
